Experimental data of several laboratories.
Compare with care: the assays were run in different laboratories.
Cell line: Vero

Compound = CCCCCCCCCCCCCCCCC1CC(=O)NCCCN(C)CCCCN(C)CCCN1C (centres unmarked); assay = cytotoxicity, neutral red; quantity = IC50; result = 2.8 µg/mL
Compound = O=C1C[C@@H](c2ccccc2)Oc2c(Cc3ccccc3O)c(O)cc(O)c21; assay = MTT; setting = concentration not given, 72 h; quantity = cytotoxicity; result = inactive
Compound = C/C(=N\N=c1/[nH]c(-c2ccccc2)cs1)c1ccccn1; assay = cell growth or viability, SRB; setting = 100 µg/mL, 48 h; quantity = inhibition; result = 63.6%
Compound = COc1c(Cc2ccccc2O)c(O)c2c(c1Cc1ccccc1O)O[C@H](c1ccccc1)CC2=O; assay = MTT; setting = concentration not given, 72 h; quantity = cytotoxicity; result = inactive
Compound = Cc1nn(C)c(O)c1-c1nc2cc(Cl)c(Cl)cc2[nH]c1=O; assay = cell growth or viability, MTT; setting = 72 h; quantity = IC50; result = > 100 µM
Compound = C/C(=N\NC(N)=S)c1ccccn1; assay = cell growth or viability, SRB; setting = 48 h; quantity = IC50; result = 7.5 µg/mL
Compound = Cc1ccc2nc(C)c(C(=O)NCc3ccc(C(F)(F)F)cc3)n2c1; assay = cytotoxicity; quantity = IC50; result = > 50 µM
Compound = N#CC[C@H](C1CCCC1)n1cc(-c2ncnc3[nH]ccc23)cn1; assay = cell growth or viability, MTT; setting = 72 h; quantity = IC50; result = > 50 µM

For quick reference, copied from above:
Compound = Cc1nn(C)c(O)c1-c1nc2cc(Cl)c(Cl)cc2[nH]c1=O; assay = cell growth or viability, MTT; setting = 72 h; quantity = IC50; result = > 100 µM
